Results pooled from the literature.
Every numbered part comes from another study and shows a few of its results, in no order.

Series 1 — method: RNA Bind-n-Seq; molecule type: RNA; medium: in vitro; tested at: 100 nM; relative to: input RNA pool; reading: higher = stronger binding
Target: RING finger protein unkempt homolog, zinc fingers 1-6, SBP tag (UNK, Homo sapiens, UniProt Q9C0B0, residues 30-357)
Chain of UniProt Q9C0B0 (30-357, looked up): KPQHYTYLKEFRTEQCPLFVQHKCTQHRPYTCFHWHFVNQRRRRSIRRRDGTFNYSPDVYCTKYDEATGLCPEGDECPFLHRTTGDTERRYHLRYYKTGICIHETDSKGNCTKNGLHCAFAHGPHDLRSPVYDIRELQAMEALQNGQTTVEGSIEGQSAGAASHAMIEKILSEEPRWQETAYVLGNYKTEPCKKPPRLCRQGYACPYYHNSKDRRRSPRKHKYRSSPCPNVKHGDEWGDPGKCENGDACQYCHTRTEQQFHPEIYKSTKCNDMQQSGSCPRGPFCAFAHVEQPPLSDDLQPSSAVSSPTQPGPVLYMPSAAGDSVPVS
Setting: RNA with constant flanks, vertebrate orthologous sites, ends assumed
Shared flanks, not repeated: GGGAGUUCUACAGUCCGACGAUC … CAACAGAGGAUUGAGCAUCA
Strand | bound/input enrichment [ratio]
CUCUCAUUUUUAUGCACCUAAAAAUCACUAUGAAAUUUUGAAACAUUCACUAGUUUUGCUGAGAUCUGCUCUGGCAGGUGUCUGUCUGUUCGAUACAUCUUAGCCACGUCUUUACCUGAA | 0.649
CAAUUCGAUGGUCGAGGGUUCAGAACUCAAAAAGGUUCGCUCCAACUCCAGGAUUUACCAUAGGUAUUUUUUACUGGAUGCUGACAUGCAGAGCCUGAGGUGGGAACCAUCUAAGAAAGA | 0.141
CAGAGCAGUUACCUAGUUCGGAGCAGUCCUUACAGGGAUAUUUCGGUUCAGGCAGCGAAGCAGAUGUAUCCUACCAGCAGGAACCAUCCCAUCAGCCCUCCGUGUCCUGCAACCCCUCCA | 0.484
GCUCUAGUCCUUAAGAACCAACACUCCUAAAAGAUUUAGAAAAAAGUUUACAACAUAAUCUAGUUUACGAAGAAGCCUUGUGCUAGAAUACUUUUUAAAAAGUAUUUUUGAAUACCAUUA | 1.16
AUCUCUCACUUUUUAGGUCCAAAAGUUGCUCUGAGUUUUCAAACAUUUUGCAGUUUAAAUGAUAUCUGCUGUAGCAGGUGUUCUUGCAGUGCCCCAUAGUCUGAGGUCUUCCCGAAGUGC | 0.56
GAGCUAAAGGAGUUAGCAUCUUUAUUUUUGUAUCAAAGAUAAAGGUUAUUUUGAAAUUAUCAGGAUUUUUACACAACUCUGAAAUCUGUUGCUUUUGUAAACCAAUUGUUUGAUCUUAGG | 0.363
AUUGCCUACAAUAAUGAAAACCUAUAAAAUUUUUUUGUUUUUCAUUUCCCCCUUAGGCAUAAUUAGUCUUUUUUCCCAGGCAGAUCAUUCUGAGUGUGCGAGUGUGUGUGCACAUGUUAC | 0.979

Series 2 — method: protein-binding microarray; molecule type: double-stranded DNA, one strand shown; medium: in vitro; tested at: 250 nM; setting: 60-bp whole probe; with: salmon DNA 0.4 mg/ml; relative to: random background probes; reading: higher = stronger binding
Target: Interferon regulatory factor 7, full length, phosphomimetic (IRF7, Homo sapiens, UniProt Q92985, residues 1-503, S101K/S471D/S472D/S475D/S476D/S477D/S483D/S484D/S487D)
Shared flanks, not repeated: GCCTAGCAC … GTGCTAGGTCTTGATTCGCTTGACGCTGCTG
Construct (chain): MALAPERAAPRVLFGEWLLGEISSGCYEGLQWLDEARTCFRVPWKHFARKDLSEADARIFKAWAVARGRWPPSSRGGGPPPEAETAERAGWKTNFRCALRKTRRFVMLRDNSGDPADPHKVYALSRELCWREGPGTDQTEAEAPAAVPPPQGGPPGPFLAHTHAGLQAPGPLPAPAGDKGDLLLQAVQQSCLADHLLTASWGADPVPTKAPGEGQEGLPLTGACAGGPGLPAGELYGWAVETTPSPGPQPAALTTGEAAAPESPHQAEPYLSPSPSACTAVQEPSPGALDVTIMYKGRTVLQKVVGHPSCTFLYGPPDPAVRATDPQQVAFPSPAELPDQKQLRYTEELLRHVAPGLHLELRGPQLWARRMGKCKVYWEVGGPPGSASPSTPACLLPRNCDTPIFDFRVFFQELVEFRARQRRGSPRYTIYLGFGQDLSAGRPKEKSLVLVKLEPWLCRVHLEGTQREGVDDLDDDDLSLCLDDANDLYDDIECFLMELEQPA
Strand | log fluorescence
TTAGGTCTCCTTTACCTTTA | 0.697 z-score
CTAGGTATCCTTTTCCTTTA | 2.2 z-score
TGTTGTCTGTGTTTCCTTGT | 0.615 z-score
TTAGGACTGGGTTCCGGTTA | 1.43 z-score
CACAGTCTGAGATCCAGAAG | 0.19 z-score
TGTTTTTCATTTTTTTTCAT | 2.92 z-score
TTAGGACTGCTACTGGTTTA | -0.238 z-score

Series 3 — method: protein-binding microarray; molecule type: double-stranded DNA, one strand shown; medium: in vitro; tested at: not given; reading: higher = stronger binding
Target: Myc proto-oncogene protein, bHLH-zipper, MAX partner unstated (MYC, Homo sapiens, UniProt P01106, residues 368-449)
Chain of UniProt P01106 (368-449, looked up): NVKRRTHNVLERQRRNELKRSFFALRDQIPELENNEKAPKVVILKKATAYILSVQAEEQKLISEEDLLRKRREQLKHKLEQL
Setting: k-mer, scored over probes, only values ≥0.25
Strand | E-score
CTCATGGC | 0.402
AAACACGC | 0.408
CATGTCTC | 0.306
AACCGCGT | 0.376
CACGAGTC | 0.406
ATGTGGTA | 0.324
CACGAGAC | 0.412
AAGCACGC | 0.436
ATCACGCA | 0.255

Single results of other studies
Molecule | target | test | system | conditions | how to read | endpoint | value
PhoQ, residues 284 288 289 292 302 303 SIHMAM | PhoP, residues 12 14 15 18 19 SYFRT (Escherichia coli, UniProt P23836) | Sort-seq, refers to: YFP reporter | E. coli | PhoQ-PhoP variant library, with: 10 µM Mg2+ | relative to: high Mg2+ state, higher = stronger signaling | fold induction | 2.85

Excerpt of the above (series 3):
Strand | E-score
ATGTGGTA | 0.324
CACGAGAC | 0.412
AAGCACGC | 0.436
